Published values collected from several papers.
Protocols differ between the studies behind these lines. Numbers after ± are the reported error.
UCHL1: Ubiquitin carboxyl-terminal hydrolase isozyme L1 (UCHL1, Homo sapiens, UniProt P09936)
UniProt P09936, sequence (whole entry, looked up): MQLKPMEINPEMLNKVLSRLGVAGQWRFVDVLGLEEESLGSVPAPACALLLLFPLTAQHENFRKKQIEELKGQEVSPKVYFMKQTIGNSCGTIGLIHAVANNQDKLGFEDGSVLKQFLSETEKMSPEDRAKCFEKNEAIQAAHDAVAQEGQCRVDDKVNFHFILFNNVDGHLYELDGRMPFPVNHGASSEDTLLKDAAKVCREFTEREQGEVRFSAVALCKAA

Compound	target or system	assay	system	setting	how to read	measurement	result
CC(C)c1nc(N(C)S(C)(=O)=O)nc(-c2ccc(F)cc2)c1/C=C/[C@@H](O)C[C@@H](O)CC(=O)O	–	–	rat, Wistar albino, plasma	oral, 20 mg/kg, 0 h	–	plasma concentration	0 ng/mL
CCOCc1nc(O)c(-c2nnc(Cc3ccc(Cl)cn3)o2)c(O)c1-c1c(OC)cccc1OC	–	–	anaesthetised rat, plasma	intravenous infusion, 10 µg/kg/min, 15 min	–	plasma concentration	1550 ± 48 nM
O=C(CCl)Nc1nc2ccc([N+](=O)[O-])cc2s1	UCHL1	covalent, intact protein LC-MS	–	12.5 µM	–	labelling	64.7%
C[C@H]1CN(c2n[nH]c3nc(N[C@H]4CC[C@H](NS(=O)(=O)CCC(F)(F)F)CC4)ncc23)CCO1	–	–	male Han Wistar rat	oral, 1000 mg/kg/day, 7 days	baseline: vehicle	plasma glucose concentration	1.44 fold
Cc1cc(C(=O)NC(C)(C)COc2cccc3c2C(N)=NS(=O)(=O)N3)cc(C)n1	–	LC-MS metabolite profiling	Sprague-Dawley rat, both sexes, plasma	oral, 100 mg/kg of parent drug, 0.5 (unit not given)	higher = more metabolite	plasma peak area	2.86e+06 a.u.
O=C1c2ccncc2C(=O)c2c1[nH]c1ccccc21	–	–	Sprague-Dawley rat, male, plasma	intravenous, 5 mg/kg	–	plasma clearance	39.8 ± 22.2 mL/min
COc1cc(F)c([C@@H]2CNC(=O)[C@H]2NC(=O)Nc2ccccc2)c(F)c1	–	–	Sprague-Dawley rats, LPS challenge, plasma	oral, 1 mg/kg, 3 h post dose	–	plasma concentration	146 ± 42 nM
C/C=C/C[C@H](C)[C@@H](OC)[C@@H](C)[C@H](O)C[C@H]1OC(=O)C=C[C@H]1CC	–	–	rat	–	–	plasma protein binding	93%
CC(C)C[C@H](NC(=O)C[C@H](O)[C@H](CC(C)C)NC(=O)[C@H](Cc1c[nH]cn1)NC(=O)CNC(=O)[C@@H](NC(=O)[C@H](C)NC(=O)[C@H](Cc1c[nH]c2ccccc12)NC(=O)[C@H](CCC(N)=O)NC(=O)[C@@H](Cc1ccccc1)NC(=O)COCCOCCNC(=O)CN1CCN(CC(=O)O)CCN(CC(=O)O)CCN(CC(=O)O)CC1)C(C)C)C(N)=O [lutetium-177 labelled]	–	–	BALB/c nu/nu mice, female, carcass incl. GI tract contents	intravenous, 50 pmol, 1 h	–	tissue uptake	2.9 ± 0.7 %ID
COc1cc2c(cc1OC)C(c1ccccc1)N(C(=O)CCl)CC2 (stereo not drawn)	UCHL1	covalent, intact protein LC-MS	–	12.5 µM	–	labelling	8.14%
C=CC[C@@H]1/C=C(\C)C[C@H](C)C[C@H](OC)[C@H]2O[C@@](O)(C(=O)C(=O)N3CCCC[C@H]3C(=O)O[C@H](/C(C)=C/[C@@H]3CC[C@@H](O)[C@H](OC)C3)[C@H](C)[C@@H](O)CC1=O)[C@H](C)C[C@@H]2OC	–	–	Wistar Kyoto rat, male, plasma	ip, 0.5 mg/kg/day, day 18	–	plasma HCO3− level	23.8 ± 1.2 mmol/L
Cc1ccc2c(c1)C(=O)[C@]1(O)CCN(c3ccc4nc(C)ccc4c3)C1=N2	–	–	rat, plasma	subcutaneous, 70 mg/kg, 1 h	–	plasma concentration	3600 ± 400 nM
